# Assay results pooled from the literature.
# Each numbered part is a random draw from the data of one study; scales do not carry over between parts.

# Sample 1
# Target: RNA binding protein fox-1 homolog 2, RRM domain, GST-SBP tag (RBFOX2, Homo sapiens, UniProt O43251-10, residues 100-194)
# Method: RNA Bind-n-Seq
# Form: RNA
# Sample: in vitro
# Concentration: 365 nM
# Setting: natural RNA segment, single round, ends assumed
# Relative to: no-protein control
# Reading: higher = stronger binding
# Residues (chain): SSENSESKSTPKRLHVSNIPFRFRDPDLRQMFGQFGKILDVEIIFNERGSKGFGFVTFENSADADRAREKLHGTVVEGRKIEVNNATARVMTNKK
Oligonucleotide,RBNS enrichment (R)
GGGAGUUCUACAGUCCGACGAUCCAUAACAUGCCUUUUUUGUAUCAAAUGUACUAAGACUUGCCUAUAUAUAGUGCCACUGUGCCUUCUCAUUUGUUUCUGAAUUUUCCACAUUUUAUUACAAAAUGUAGAAAUGGAAUUCUCGGGUGCCAA,0.474
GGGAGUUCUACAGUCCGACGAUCCUACUUGUGACUUUCCAACCUGGUAACUUCCACUGAAUUCUGGAAAGAGAAAUUCUUGAGGACCCUGGCAAGUUGGGCCCUGACCUUUCUGUUGCUGUCUCUUGCUGGUGUGGAAUUCUCGGGUGCCAA,0.301
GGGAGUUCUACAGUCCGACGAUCUCCUCUGAUAUGCCUUGUAGCUAAGAUUUAAAAGACUGUUGAACAUAGAUGAGGGGUAUGCAUUUCUUAAAAAUCCAUGAACCCUCAAUUGUAUGCUUUCAGUAUUGUGUUGGAAUUCUCGGGUGCCAA,3.41
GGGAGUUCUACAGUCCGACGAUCUUCGCAUGCUGAGUACUGGACCUCGGACCAGAGCCAUGUAAGAAAAGGCCUGUUCCCUGGAAGCCCAAAGGACUCUGCAUUGAGGGUGGGGGUAAUUGUCUCUUGGUGGGUGGAAUUCUCGGGUGCCAA,1.68
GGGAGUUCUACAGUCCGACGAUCUCUGGUUAUAAUUUUGGUCCAAAUUCUUUAUUCUUCCUUGAGCUAAGCAGAAUAAUGGAAUAUAAUAUGUCUUCAUAAUAUAACAACACUAAUACACUAAUAGUAAGAUUUGGAAUUCUCGGGUGCCAA,0.353
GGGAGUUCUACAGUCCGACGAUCUGUUUUGUUCCCUAUUAUAGAGUAUAUGCAAAAUUUGUCCCAGAUCUUCUUUGACUUUGUGCUUGCUCUUUAAAGUGUCCUAAGAAAAUUAAUUUUUUCAGGUAUUUUUCUGGAAUUCUCGGGUGCCAA,0.55
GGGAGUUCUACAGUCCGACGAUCCUUCUGAUGUUUUCUGGCUGUCUUAGCAUUCGCCUUUUCUCUUGCCAGCCAGUUCUGGGGAUUCAGAGGUGCAGGGAAGGGUUAGGGAAAAGGGGGCAAGGUUUUGGCAUUGGAAUUCUCGGGUGCCAA,0.479
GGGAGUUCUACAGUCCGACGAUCGGCUUACGUAAAGAAAGGGUCACCAUUUGAGGUCCUGCCUUACCAAUUAUGUGCUGCCCAACAACUAAAUUUGUAAUUUGUUUUCUCUACUUUGAGCAGGGUCUGAAUUUUGGAAUUCUCGGGUGCCAA,0.335
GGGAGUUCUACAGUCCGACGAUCUGCCCAGAGGUAGAGUUAGUGUUUAGGUGGAAAGGGAGAUGACAGCUUUCCAAAGAAGGACCUAAAACACACCAAGAUUGUCUUCUACAGGAAUUGCUGGGCAGGUCUCCUGGAAUUCUCGGGUGCCAA,1.8
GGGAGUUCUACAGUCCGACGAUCGUGCCUCACAAGUGCCUUUUGAAAAGCCUUAAAUUCUGCAUUCCCAUAAAAUAAAGUUGAUGCCACCAGACAAAGCAUUUCUGGGUCUGUAUCUGCCUGGCUGGGGUUCAUGGAAUUCUCGGGUGCCAA,0.321
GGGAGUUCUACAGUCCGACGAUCCCUCUGCCUGGUGGCUGGUGUAUCCCAACUGGGCAAGAGAUGGCAGAGGGUCCCCCUUGUGGGUGCGCUUGGAUGUGCAGAGCCUUCUCCAUGGAUUUUCUUCCCUGUAAUGGAAUUCUCGGGUGCCAA,0.379
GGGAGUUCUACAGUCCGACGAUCUGGACAGCAAGCAAGCCAUUUCCCCCCAUGUUCUCUUUCCUUCCUCCUACCCAUACUUCCUUCUCUGAGACUAUUCCAUGGGACCCACUUCCCUCUGGGUUCUCCUUUCCUGGAAUUCUCGGGUGCCAA,1.46

# Sample 2
# Target: Histone acetyltransferase KAT6A, both winged helices, GST fusion (KAT6A, Homo sapiens, UniProt Q92794, residues 1-181)
# Method: protein binding microarray
# Form: double-stranded DNA, one strand shown
# Sample: in vitro
# Concentration: not given
# Setting: 8-mer, flanks averaged, mean of 2 arrays, mostly near background
# Relative to: not given
# Reading: higher = stronger binding
# Residues (chain): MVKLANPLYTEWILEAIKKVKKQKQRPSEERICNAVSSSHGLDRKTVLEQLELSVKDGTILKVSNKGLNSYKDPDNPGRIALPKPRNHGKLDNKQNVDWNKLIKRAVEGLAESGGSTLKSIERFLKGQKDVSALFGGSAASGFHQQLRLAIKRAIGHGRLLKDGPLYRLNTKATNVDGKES
Oligonucleotide,E-score
AGGTGCGA,-0.0126
AAACTGCC,-0.0702
CCGGATTC,0.0431
ACTCACAA,-0.2
TCCCAGAA,-0.0903
AAGACGGA,0.0474
GCATACTA,-0.0899
GATTCGGA,-0.0769
ATGCTTAC,-0.116
ATGATCTC,-0.141
CAGTGTGG,-0.171
AGTTTAAC,-0.102
GACAGACC,-0.123
AACTACTG,-0.0383
ACCGACGA,0.0441
ATAGATTA,-0.0305
ATCGCCTG,-0.11
AAGGATGG,-0.136
GGCAAACA,0.0994

# Sample 3
# Target: Prothrombin, mature alpha-thrombin (F2, Homo sapiens, UniProt P00734)
# Method: aptamer microarray, sandwich
# Form: DNA with 2'F-ANA
# Sample: in vitro
# Concentration: 200 nM
# Setting: whole 15-mer aptamer, many near background
# Added: Cy3 exosite-II aptamer, 400 nM
# Reading: higher = stronger binding
# Oligonucleotide: GGTTGGTGTGGTTGG
Modification,mean fluorescence intensity [a.u.]
2'F-ANA at 1 2 5 7 8 10 12 14 15,52.1
2'F-ANA at 2 3 5 7 8 11 12 13 15,136
2'F-ANA at 3 4 5 6 7 12 15,195
2'F-ANA at 1 2 3 6 7 8 13,164
2'F-ANA at 1 6 7 8 9 13 14,56.1
2'F-ANA at 1 4 5 6 9 10 12 13 14 15,47.8
2'F-ANA at 2 3 4 5 6 7 9 11 13 14 15,48.1
2'F-ANA at 1 4 5 6 7 10 11 15,43.4
2'F-ANA at 1 5 7 10 11 12 13 14 15,47.8
2'F-ANA at 1 2 3 6 7 9 11,157
2'F-ANA at 1 7 9 12 13 14,64.9
2'F-ANA at 2 5 6 13 14,69.8
2'F-ANA at 1 5 7 8 9 13,48.5
2'F-ANA at 6 7 9 10 11 12 13 14,104
2'F-ANA at 3 4 6 7 8 9 10 12,337
2'F-ANA at 5 6 7,82.4

# Sample 4
# Target: POU, POU domain (Salpingoeca helianthica)
# Method: Spec-seq
# Form: double-stranded DNA, one strand shown
# Sample: in vitro
# Concentration: not given
# Setting: whole probe, mean of replicates
# Relative to: not given
# Reading: lower = stronger binding
# Constant ends, left off below: GAGTCGTCTCGTCAGCAC … CCGTAGAGCACTCAGGTC
# Construct (chain): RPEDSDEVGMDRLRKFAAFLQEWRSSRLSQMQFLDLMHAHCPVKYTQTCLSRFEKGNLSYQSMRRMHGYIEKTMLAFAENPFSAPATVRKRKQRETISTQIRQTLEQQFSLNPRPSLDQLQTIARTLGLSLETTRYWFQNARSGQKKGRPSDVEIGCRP
Oligonucleotide,relative binding energy [ln ratio]
ATTTTAAT,-0.146
TGATTAAT,-0.775
ACCGTAAT,0.673
GAGATAAT,0.207
CGACTAAT,0.774
ATGCGTGT,1.44
ATGCCGGG,1.28
ATATCCAT,1.15
ATGGGGAT,1.42
ATACCTAT,0.984
ATGCTACG,1.28
ATGCGCGC,1.39
TATGTAAT,0.509
CGTGTAAT,0.449
ATGGGTAT,1.13
GGGATAAT,0.402
ATGCGAGC,1.28
ATGCTCAG,1.2

# Repeated from above (sample 4):
Oligonucleotide,relative binding energy [ln ratio]
ATGCGCGC,1.39
ATGGGGAT,1.42
ATTTTAAT,-0.146
ATGCCGGG,1.28
